Published values pooled from the literature.
Organism: Acinetobacter baumannii

CCCCCCCCCC(=O)N[C@@H](Cc1c[nH]c2ccccc12)C(=O)N[C@H](CC(N)=O)C(=O)N[C@@H](CC(=O)O)C(=O)N[C@@H]1C(=O)NCC(=O)N[C@@H](CCCN)C(=O)N[C@@H](CC(=O)O)C(=O)N[C@H](C)C(=O)N[C@@H](CC(=O)O)C(=O)NCC(=O)N[C@H](CO)C(=O)N[C@@H]([C@H](C)CC(=O)O)C(=O)N[C@@H](CC(=O)c2ccccc2N)C(=O)O[C@@H]1C — MIC (broth dilution; ATCC 19606): inactive
N=C(N)NCCC[C@H](NC(=O)[C@H](Cc1c[nH]c2ccccc12)NC(=O)[C@@H](N)CCCNC(=N)N)C(=O)N[C@@H](Cc1c[nH]c2ccccc12)C(=O)N[C@@H](CCC(N)=O)C(=O)N[C@@H](Cc1ccccc1)C(=O)N[C@@H](CCC(N)=O)C(=O)N[C@@H](Cc1ccccc1)C(=O)N[C@@H](CCCCN)C(N)=O — MIC (broth microdilution, optical density): 39 µM
CC[C@H](C)[C@H](NC(=O)[C@H](CC(C)C)NC(=O)[C@H](CCCCN)NC(=O)[C@@H](NC(=O)[C@H](C)NC(=O)[C@H](CCC(=O)O)NC(=O)[C@H](Cc1c[nH]cn1)NC(=O)[C@@H](NC(=O)[C@H](CCCCN)NC(=O)[C@H](CCC(N)=O)NC(=O)[C@H](Cc1ccccc1)NC(=O)[C@@H](NC(=O)[C@H](CCCCN)NC(=O)[C@@H](N)CCCCN)C(C)C)[C@@H](C)CC)[C@@H](C)CC)C(N)=O — MIC (CLSI broth microdilution; ATCC 19606; 18 h, 37 °C): 64 µM
CC(C)C[C@@H](NC(=O)CNC(=O)[C@@H](CCCCN)NC(=O)[C@@H](CC(C)C)NC(=O)[C@@H](CCCCN)NC(=O)[C@@H](CCCNC(=N)N)NC(=O)[C@@H](CC(C)C)NC(=O)[C@@H](CC(C)C)NC(=O)[C@@H](CCCNC(=N)N)NC(=O)[C@H](N)CCCNC(=N)N)C(=O)N[C@H](CCCCN)C(=O)N[C@H](CCCCN)C(=O)N[C@H](Cc1ccc(O)cc1)C(=O)N[C@H](CC(C)C)C(=O)N[C@H](Cc1ccc(O)cc1)C(=O)N[C@H](Cc1ccccc1)C(=O)N[C@H](CCCCN)C(=O)N[C@H](CC(C)C)C(=O)N[C@H](CCC(N)=O)C(=O)N[C@H](CC(C)C)C(=O)N[C@H](CC(C)C)C(=O)N[C@H](CCCCN)C(=O)N[C@H](CCCCN)C(N)=O — MIC (ATCC BAA1605, Mueller-Hinton broth; 24 h): 1 µM
CC(C)C[C@H](NC(=O)[C@@H](NC(=O)[C@H](CCCNC(=N)N)NC(=O)[C@H](CCC(N)=O)NC(=O)[C@H](Cc1ccccc1)NC(=O)[C@H](Cc1ccc(O)cc1)NC(=O)[C@H](CC(N)=O)NC(=O)[C@H](Cc1c[nH]c2ccccc12)NC(=O)[C@@H](NC(=O)[C@H](CCCNC(=N)N)NC(=O)[C@H](CCCCN)NC(=O)[C@@H](N)Cc1ccccc1)C(C)C)C(C)C)C(=O)N[C@H](C(=O)N[C@@H](CCCCN)C(=O)N[C@@H](CCCCN)C(=O)N[C@@H](Cc1ccc(O)cc1)C(=O)N[C@@H](C)C(N)=O)C(C)C — MIC (broth dilution; ATCC 19606): 3.1 µM
C[C@H]1COc2c(N3CCN(C)CC3)c(F)cc3c(=O)c(C(=O)O)cn1c23 — MIC (1189854, multidrug-resistant): > 8 µg/mL
CC[C@H](C)[C@H](NC(=O)CNC(=O)[C@H](CC(=O)O)NC(=O)[C@H](CCCNC(=N)N)NC(=O)[C@@H](NC(=O)[C@H](CC(N)=O)NC(=O)[C@H](CCCNC(=N)N)NC(=O)CNC(=O)[C@@H](NC(=O)[C@H](CCCCN)NC(=O)[C@H](CCC(=O)O)NC(=O)[C@@H](NC(=O)[C@H](CCCCN)NC(=O)[C@H](CCCCN)NC(=O)[C@H](Cc1ccccc1)NC(=O)[C@@H](NC(=O)[C@H](CCCCN)NC(=O)[C@H](Cc1c[nH]c2ccccc12)NC(=O)[C@@H](N)CCCNC(=N)N)[C@@H](C)CC)[C@@H](C)CC)C(C)C)C(C)C)C(=O)N[C@H](C(=O)N[C@@H](CCCCN)C(=O)N[C@@H](C)C(=O)N1CCC[C@H]1C(=O)N1CCC[C@H]1C(=O)N[C@@H](C)C(=O)N[C@H](C(=O)N[C@@H](C)C(=O)N[C@H](C(=O)N[C@H](C(=O)NCC(=O)N[C@@H](CCC(N)=O)C(=O)N[C@@H](C)C(=O)N[C@@H](C)C(=O)N[C@H](C(=O)N[C@H](C(=O)N[C@H](C(=O)N[C@@H](CCCCN)C(N)=O)C(C)C)C(C)C)[C@@H](C)O)C(C)C)C(C)C)C(C)C)[C@@H](C)CC — MIC (KCCM 40203, Mueller-Hinton broth; 16 h, 37 °C; growth inhibition over 99%): 4 µM
CC[C@H](C)CCCCC(=O)N[C@@H](CCN)C(=O)N[C@H](C(=O)N[C@@H](CCN)C(=O)N[C@H]1CCNC(=O)[C@H]([C@@H](C)O)NC(=O)[C@H](CCN)NC(=O)[C@H](CCN)NC(=O)[C@H](CC(C)C)NC(=O)[C@@H](CC(C)C)NC(=O)[C@H](CCN)NC1=O)[C@@H](C)O — MIC (broth microdilution; ATCC 19606): 0.25 µg/mL
CC[C@H](C)[C@H](NC(=O)[C@H](CC(C)C)NC(=O)[C@H](CCCNC(=N)N)NC(=O)[C@@H](N)CCCNC(=N)N)C(=O)N[C@@H](CCCNC(=N)N)C(=O)N[C@H](C(=O)N[C@@H](CCCCN)C(=O)N[C@H](C(=O)NCC(=O)N1CCC[C@H]1C(=O)N[C@H](C(=O)N[C@H](C(=O)N[C@@H](Cc1ccc(O)cc1)C(=O)N[C@@H](CCCCN)C(=O)N[C@@H](Cc1ccc(O)cc1)C(=O)N[C@@H](Cc1ccccc1)C(=O)N[C@@H](CCCCN)C(=O)N[C@@H](CCCCN)C(=O)N[C@@H](CCC(N)=O)C(=O)N[C@@H](CC(C)C)C(=O)N[C@@H](CC(C)C)C(=O)N[C@@H](CCCCN)C(=O)N[C@@H](CCCCN)C(N)=O)[C@@H](C)CC)[C@@H](C)CC)[C@@H](C)O)[C@@H](C)O — MIC (KCCM 40203, Mueller-Hinton broth; 24 h): 2 µM
CC[C@H](C)[C@H](NC(=O)CNC(=O)[C@H](CC(=O)O)NC(=O)[C@H](CCCNC(=N)N)NC(=O)[C@@H](NC(=O)[C@H](CC(N)=O)NC(=O)[C@H](CCCNC(=N)N)NC(=O)CNC(=O)[C@@H](NC(=O)[C@H](CCC(=O)O)NC(=O)[C@H](CCC(=O)O)NC(=O)[C@@H](NC(=O)[C@H](CCCCN)NC(=O)[C@H](CCCCN)NC(=O)[C@H](Cc1ccccc1)NC(=O)[C@@H](NC(=O)[C@H](CCCCN)NC(=O)[C@H](Cc1c[nH]c2ccccc12)NC(=O)[C@@H](N)CCCNC(=N)N)[C@@H](C)CC)[C@@H](C)CC)C(C)C)C(C)C)C(=O)N[C@H](C(=O)N[C@@H](CCCCN)C(=O)N[C@@H](C)C(=O)NCC(=O)N1CCC[C@H]1C(=O)N[C@@H](C)C(=O)N[C@H](C(=O)N[C@@H](C)C(=O)N[C@H](C(=O)N[C@H](C(=O)NCC(=O)N[C@@H](CCC(N)=O)C(=O)N[C@@H](C)C(=O)N[C@@H](C)C(=O)N[C@H](C(=O)N[C@H](C(=O)N[C@H](C(=O)N[C@@H](CCCCN)C(N)=O)C(C)C)C(C)C)[C@@H](C)O)C(C)C)C(C)C)C(C)C)[C@@H](C)CC — MIC (KCCM 40203, Mueller-Hinton broth; 16 h, 37 °C; growth inhibition over 99%): 4 µM

A few entries again:
CC(C)C[C@@H](NC(=O)CNC(=O)[C@@H](CCCCN)NC(=O)[C@@H](CC(C)C)NC(=O)[C@@H](CCCCN)NC(=O)[C@@H](CCCNC(=N)N)NC(=O)[C@@H](CC(C)C)NC(=O)[C@@H](CC(C)C)NC(=O)[C@@H](CCCNC(=N)N)NC(=O)[C@H](N)CCCNC(=N)N)C(=O)N[C@H](CCCCN)C(=O)N[C@H](CCCCN)C(=O)N[C@H](Cc1ccc(O)cc1)C(=O)N[C@H](CC(C)C)C(=O)N[C@H](Cc1ccc(O)cc1)C(=O)N[C@H](Cc1ccccc1)C(=O)N[C@H](CCCCN)C(=O)N[C@H](CC(C)C)C(=O)N[C@H](CCC(N)=O)C(=O)N[C@H](CC(C)C)C(=O)N[C@H](CC(C)C)C(=O)N[C@H](CCCCN)C(=O)N[C@H](CCCCN)C(N)=O — MIC (ATCC BAA1605, Mueller-Hinton broth; 24 h): 1 µM
CC[C@H](C)[C@H](NC(=O)[C@H](CC(C)C)NC(=O)[C@H](CCCCN)NC(=O)[C@@H](NC(=O)[C@H](C)NC(=O)[C@H](CCC(=O)O)NC(=O)[C@H](Cc1c[nH]cn1)NC(=O)[C@@H](NC(=O)[C@H](CCCCN)NC(=O)[C@H](CCC(N)=O)NC(=O)[C@H](Cc1ccccc1)NC(=O)[C@@H](NC(=O)[C@H](CCCCN)NC(=O)[C@@H](N)CCCCN)C(C)C)[C@@H](C)CC)[C@@H](C)CC)C(N)=O — MIC (CLSI broth microdilution; ATCC 19606; 18 h, 37 °C): 64 µM
